Assay results from different studies.
Lines come from different studies, so protocols differ.
Target: Tyrosine-protein kinase Tec (TEC, Homo sapiens, UniProt P42680)

| Structure (SMILES) | test | test system | conditions | scale | quantity | value |
| --- | --- | --- | --- | --- | --- | --- |
| CNC(=O)C1CCN(c2cc(C)c(F)cc2NC(=O)c2ccc(-c3cc(O)ccc3C)c(C)c2)CC1 | binding, competition with immobilised ligand | – | 1 µM | – | remaining binding | 71% |
| CN1CCN(Cc2ccc(-c3ccc(CO[C@H]4CCC[C@@H]4NC(=O)c4cc(-c5cnn(C)c5)cnc4N)cc3)cc2)CC1 | enzyme activity, inhibitor | – | 0.1 µM | – | inhibition | 7% |
| Nc1ncc2c(n1)-c1c([nH]c3ccc(C4=CCOCC4)cc13)CCC2 | binding, competition with immobilised ligand | – | 1 µM | – | remaining binding | 90% |
| NC(=O)C[C@H]1CCc2sc3ncnc(O[C@H]4CC[C@H](N5CCOCC5)CC4)c3c21 | enzyme activity, inhibitor | – | 10 µM | – | inhibition | 10% |
| COc1cc(Nc2nc(C)cc(-c3cnn4nc(OC)ccc34)n2)cc(C(F)(F)F)c1 | binding, competition with immobilised ligand | – | 1 µM | – | remaining binding | 78% |
| Cc1cnc2nc1Nc1cccc(c1)COC/C=C/COCc1cc(ccc1OCCN1CCOCC1)N2 | binding, competition with immobilised ligand | – | 0.1 µM | – | remaining binding | 79% |
| C=CC(=O)N1CCCC(n2c(=O)c3ncccc3n(Cc3ccc(Oc4ccccc4)cc3)c2=O)C1 (centres unmarked) | cell-free assay, competition with immobilised ligand | – | 1 µM | – | remaining binding | 85% |
| C[C@H]1CN(C(=O)c2cn(-c3ccnc(N)n3)c3cc(C#CC4(O)CCCCC4)ccc23)CCN1 | cell-free assay, TR-FRET | – | 1 µM | – | inhibition | 2% |
| COc1ccc(NC(=O)Nc2ccc3c(c2)C(=O)N(C(C)CO)CC(C)C(CN(C)Cc2ccc4c(c2)OCO4)O3)cc1 (centres unmarked) | – | – | 0.03 µM | reference: control | remaining activity | 98% |
| CCN1CCN(Cc2ccc(NC(=O)c3ccc(C)c(NC(=O)c4cncc(-c5cccs5)c4)c3)cc2C(F)(F)F)CC1 | binding, competition with immobilised ligand | – | 1 µM | – | remaining binding | 4.8% |
| C=CC(=O)N1CCc2ccc(-n3c(=O)ccc4cnc5ccc(-c6cnn(C)c6)cc5c43)cc21 | KINOMEscan | – | 1 µM | reference: DMSO control | remaining binding | 53% |
| C=CC(=O)Nc1cccc(-c2cnc3[nH]cc(C(=O)NC(C)(C)C)c3n2)c1 | enzyme activity, inhibitor | – | 0.1 µM | – | inhibition | 58% |
| COc1c(Cl)cccc1Nc1c(-c2ccncc2C#C[C@@]2(C)CCCN2C(=O)/C=C/CN(C)C)[nH]c2c1C(=O)NCC2 | binding, competition with immobilised ligand | – | 3 µM | – | remaining binding | 92% |
| CCn1cc(C(=O)O)c(=O)c2c(N)c(F)c(NC3CCCCC3)cc21 | kinase activity | – | 0.1 µM, added: ATP at Km | – | inhibition | -3.5% |
| O=C=[N][Ru-4]123([n]4c5ccc(O)cc5c5c6c(c7cc(F)c[n+]1c7c54)C(=O)NC6=O)[S+]1CC[S+]2CC[S+]3CC1 (centres unmarked) | enzyme activity | – | 100 nM, human enzyme, added: 10 µM ATP | reference: untreated | remaining activity | 102% |
| Cc1ccc(C(=O)Nc2ccc(CN3CCN(C)CC3)c(C(F)(F)F)c2)cc1C#Cc1cnc2cccnn12 | target engagement, NanoBRET | human cells | – | – | Hill slope | -8.91 |
| Cc1cccc(O[C@H]2CCC[C@@H](C(C)CNCc3ccncc3)C2)c1 (relative stereo) | enzyme activity, inhibitor | – | 10 µM | – | inhibition | -7% |

For quick reference, copied from above:
| Structure (SMILES) | test | test system | conditions | scale | quantity | value |
| --- | --- | --- | --- | --- | --- | --- |
| C=CC(=O)N1CCc2ccc(-n3c(=O)ccc4cnc5ccc(-c6cnn(C)c6)cc5c43)cc21 | KINOMEscan | – | 1 µM | reference: DMSO control | remaining binding | 53% |
| C=CC(=O)Nc1cccc(-c2cnc3[nH]cc(C(=O)NC(C)(C)C)c3n2)c1 | enzyme activity, inhibitor | – | 0.1 µM | – | inhibition | 58% |
